Measurements of several laboratories.
Each numbered part is a random draw from the data of one study; scales do not carry over between parts. “And” joins repeats or separate records; there may be more than shown.
UniProt P15056, sequence (whole entry, unmodified, looked up): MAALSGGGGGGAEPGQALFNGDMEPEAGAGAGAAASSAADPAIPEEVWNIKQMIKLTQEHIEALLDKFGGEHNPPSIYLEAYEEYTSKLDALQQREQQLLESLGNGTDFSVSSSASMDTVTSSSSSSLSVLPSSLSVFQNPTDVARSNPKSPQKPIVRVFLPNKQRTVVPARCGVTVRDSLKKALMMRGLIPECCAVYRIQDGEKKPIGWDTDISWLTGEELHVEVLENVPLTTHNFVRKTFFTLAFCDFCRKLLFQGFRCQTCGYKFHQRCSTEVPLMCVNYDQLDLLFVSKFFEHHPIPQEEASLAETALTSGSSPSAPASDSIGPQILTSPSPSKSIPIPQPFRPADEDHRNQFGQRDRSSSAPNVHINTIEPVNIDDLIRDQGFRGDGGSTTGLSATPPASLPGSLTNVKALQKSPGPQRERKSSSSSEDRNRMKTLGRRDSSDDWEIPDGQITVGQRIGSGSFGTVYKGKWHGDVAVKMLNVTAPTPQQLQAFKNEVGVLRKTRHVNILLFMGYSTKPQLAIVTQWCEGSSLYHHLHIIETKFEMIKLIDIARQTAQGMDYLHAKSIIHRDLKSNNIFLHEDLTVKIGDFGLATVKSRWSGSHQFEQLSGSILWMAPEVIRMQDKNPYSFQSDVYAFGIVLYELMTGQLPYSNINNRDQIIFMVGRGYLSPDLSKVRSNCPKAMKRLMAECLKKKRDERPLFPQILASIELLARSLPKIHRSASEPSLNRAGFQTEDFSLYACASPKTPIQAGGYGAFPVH
UniProt Q8TDR2, sequence (whole entry, looked up): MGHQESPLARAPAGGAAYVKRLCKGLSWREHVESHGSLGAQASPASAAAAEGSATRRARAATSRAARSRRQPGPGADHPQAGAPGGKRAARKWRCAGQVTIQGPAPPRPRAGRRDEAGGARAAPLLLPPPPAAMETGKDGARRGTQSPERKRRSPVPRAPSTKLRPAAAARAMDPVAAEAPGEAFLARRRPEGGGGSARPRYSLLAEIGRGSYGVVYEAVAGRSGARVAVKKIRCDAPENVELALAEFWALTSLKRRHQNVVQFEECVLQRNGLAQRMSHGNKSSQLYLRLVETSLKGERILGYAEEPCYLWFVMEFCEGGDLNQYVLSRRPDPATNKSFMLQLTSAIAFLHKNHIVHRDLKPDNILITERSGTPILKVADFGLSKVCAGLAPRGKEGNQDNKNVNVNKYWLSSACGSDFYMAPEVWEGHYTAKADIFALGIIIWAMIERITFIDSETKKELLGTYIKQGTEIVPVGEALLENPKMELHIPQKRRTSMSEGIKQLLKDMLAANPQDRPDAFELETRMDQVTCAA
UniProt P25098, sequence (whole entry, looked up): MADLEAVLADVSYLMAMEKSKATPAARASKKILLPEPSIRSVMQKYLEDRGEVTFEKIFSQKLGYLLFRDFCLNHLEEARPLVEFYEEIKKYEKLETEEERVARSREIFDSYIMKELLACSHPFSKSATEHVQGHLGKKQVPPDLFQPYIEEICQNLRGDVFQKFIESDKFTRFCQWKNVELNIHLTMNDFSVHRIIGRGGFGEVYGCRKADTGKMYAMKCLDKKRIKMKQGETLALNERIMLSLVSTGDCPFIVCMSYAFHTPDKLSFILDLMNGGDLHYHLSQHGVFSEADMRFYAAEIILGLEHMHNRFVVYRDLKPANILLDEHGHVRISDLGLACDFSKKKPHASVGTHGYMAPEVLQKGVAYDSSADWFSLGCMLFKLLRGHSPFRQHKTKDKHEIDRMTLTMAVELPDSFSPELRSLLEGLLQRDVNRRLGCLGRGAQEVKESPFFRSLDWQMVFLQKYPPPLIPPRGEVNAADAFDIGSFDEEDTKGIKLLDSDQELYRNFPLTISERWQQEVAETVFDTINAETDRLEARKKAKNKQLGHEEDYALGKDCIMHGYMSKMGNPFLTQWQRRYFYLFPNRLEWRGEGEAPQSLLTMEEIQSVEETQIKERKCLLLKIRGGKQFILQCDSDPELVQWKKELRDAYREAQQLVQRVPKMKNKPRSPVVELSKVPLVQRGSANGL
UniProt Q9HCP0, sequence (whole entry, looked up): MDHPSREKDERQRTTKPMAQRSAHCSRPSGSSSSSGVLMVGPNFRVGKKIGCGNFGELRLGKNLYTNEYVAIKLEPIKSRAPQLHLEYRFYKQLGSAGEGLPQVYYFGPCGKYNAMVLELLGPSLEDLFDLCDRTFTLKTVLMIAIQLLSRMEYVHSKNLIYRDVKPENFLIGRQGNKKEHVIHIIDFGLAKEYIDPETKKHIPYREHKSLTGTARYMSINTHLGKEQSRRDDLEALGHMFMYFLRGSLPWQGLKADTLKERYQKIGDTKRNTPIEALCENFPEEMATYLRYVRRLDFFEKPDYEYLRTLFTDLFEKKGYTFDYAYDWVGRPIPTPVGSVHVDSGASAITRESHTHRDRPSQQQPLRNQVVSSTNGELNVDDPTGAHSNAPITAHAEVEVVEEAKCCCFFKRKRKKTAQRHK

Series 1
Target: Leucine-rich repeat serine/threonine-protein kinase 2 (LRRK2, Homo sapiens, UniProt Q5S007)
UniProt Q5S007, sequence (whole entry, looked up): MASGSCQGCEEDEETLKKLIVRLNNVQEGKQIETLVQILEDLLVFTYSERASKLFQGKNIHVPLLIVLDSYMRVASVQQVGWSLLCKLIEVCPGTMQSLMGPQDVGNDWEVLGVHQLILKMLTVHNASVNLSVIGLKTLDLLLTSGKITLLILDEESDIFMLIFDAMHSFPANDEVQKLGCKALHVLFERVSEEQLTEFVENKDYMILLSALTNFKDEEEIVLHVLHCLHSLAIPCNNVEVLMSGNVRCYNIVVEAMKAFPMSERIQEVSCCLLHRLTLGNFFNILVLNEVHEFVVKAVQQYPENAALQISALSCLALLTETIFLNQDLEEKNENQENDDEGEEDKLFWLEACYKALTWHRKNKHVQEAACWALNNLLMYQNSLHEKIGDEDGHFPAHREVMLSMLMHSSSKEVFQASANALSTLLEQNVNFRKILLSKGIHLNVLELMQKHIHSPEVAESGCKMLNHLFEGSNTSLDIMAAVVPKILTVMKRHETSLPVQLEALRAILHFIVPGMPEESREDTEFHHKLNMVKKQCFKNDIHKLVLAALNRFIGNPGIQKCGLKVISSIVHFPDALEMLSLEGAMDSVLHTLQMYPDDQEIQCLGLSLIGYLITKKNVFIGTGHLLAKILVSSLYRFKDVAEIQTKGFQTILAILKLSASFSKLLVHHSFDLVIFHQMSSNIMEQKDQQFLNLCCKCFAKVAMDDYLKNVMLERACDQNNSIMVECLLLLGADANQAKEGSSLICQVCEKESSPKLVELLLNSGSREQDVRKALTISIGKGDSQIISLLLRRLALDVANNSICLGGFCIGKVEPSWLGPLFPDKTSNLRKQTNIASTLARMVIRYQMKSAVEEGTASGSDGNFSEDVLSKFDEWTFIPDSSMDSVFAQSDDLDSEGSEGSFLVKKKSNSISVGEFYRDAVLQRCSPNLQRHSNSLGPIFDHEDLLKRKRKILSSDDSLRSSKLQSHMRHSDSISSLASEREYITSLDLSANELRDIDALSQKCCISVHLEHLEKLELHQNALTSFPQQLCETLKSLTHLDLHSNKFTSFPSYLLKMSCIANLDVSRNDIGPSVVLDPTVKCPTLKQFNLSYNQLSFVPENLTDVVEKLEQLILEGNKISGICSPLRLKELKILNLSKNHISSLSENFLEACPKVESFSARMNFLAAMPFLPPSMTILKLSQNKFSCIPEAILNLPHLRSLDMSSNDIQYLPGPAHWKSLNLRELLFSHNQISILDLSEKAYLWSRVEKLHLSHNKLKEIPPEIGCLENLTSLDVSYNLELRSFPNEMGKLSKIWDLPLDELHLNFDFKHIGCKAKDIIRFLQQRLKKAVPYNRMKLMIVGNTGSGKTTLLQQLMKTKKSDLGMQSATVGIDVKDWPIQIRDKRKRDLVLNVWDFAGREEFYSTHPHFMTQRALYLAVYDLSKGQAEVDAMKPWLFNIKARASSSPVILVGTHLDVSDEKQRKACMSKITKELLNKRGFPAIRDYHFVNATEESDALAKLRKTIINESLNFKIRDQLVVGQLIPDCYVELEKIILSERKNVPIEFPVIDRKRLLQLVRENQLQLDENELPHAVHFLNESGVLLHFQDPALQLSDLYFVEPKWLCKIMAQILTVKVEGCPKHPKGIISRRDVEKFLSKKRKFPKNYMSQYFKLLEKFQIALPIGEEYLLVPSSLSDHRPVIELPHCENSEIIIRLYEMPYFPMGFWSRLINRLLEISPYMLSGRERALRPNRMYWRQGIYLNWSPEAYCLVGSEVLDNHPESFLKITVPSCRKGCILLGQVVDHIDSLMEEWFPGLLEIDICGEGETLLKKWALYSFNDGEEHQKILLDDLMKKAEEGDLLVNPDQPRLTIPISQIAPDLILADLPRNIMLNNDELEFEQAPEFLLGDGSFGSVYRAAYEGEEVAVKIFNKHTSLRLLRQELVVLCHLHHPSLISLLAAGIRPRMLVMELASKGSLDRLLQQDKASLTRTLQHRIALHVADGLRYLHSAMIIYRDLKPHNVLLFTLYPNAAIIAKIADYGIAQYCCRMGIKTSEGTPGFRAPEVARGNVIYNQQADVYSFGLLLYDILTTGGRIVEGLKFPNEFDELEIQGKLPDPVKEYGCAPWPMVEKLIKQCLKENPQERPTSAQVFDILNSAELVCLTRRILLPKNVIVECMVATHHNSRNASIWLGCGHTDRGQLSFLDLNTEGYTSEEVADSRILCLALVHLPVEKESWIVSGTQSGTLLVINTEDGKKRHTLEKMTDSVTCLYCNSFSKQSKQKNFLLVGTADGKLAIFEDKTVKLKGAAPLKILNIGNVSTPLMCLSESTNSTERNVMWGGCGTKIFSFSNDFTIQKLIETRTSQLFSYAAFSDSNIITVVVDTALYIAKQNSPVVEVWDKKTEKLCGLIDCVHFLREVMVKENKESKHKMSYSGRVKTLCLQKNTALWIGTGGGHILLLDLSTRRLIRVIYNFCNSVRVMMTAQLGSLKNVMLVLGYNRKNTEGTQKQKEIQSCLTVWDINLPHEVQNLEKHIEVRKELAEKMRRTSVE
Observed: enzyme activity
Mode: inhibitor
Concentration: 0.5 µM
Reference: control
SMILES	remaining activity
O=C1NC(=O)C(c2cn(CCCn3ccnc3)c3ccccc23)=C1Nc1ccccc1	43.6%
O=C(Nc1cccc(Nc2cc(Nc3cccc(C(F)(F)F)c3)ncn2)c1)C1CC1	95.6%
C#Cc1cccc(Nc2ncnc3cc(OCCOC)c(OCCOC)cc23)c1	62.3%
Nc1ccc2ncnc(NCCc3ccc(Oc4ccccc4)cc3)c2c1	98.5%
Cc1cccc(-c2[nH]c(C(C)(C)C)nc2-c2ccc3c(c2)OCO3)n1	103%
CN(C)c1ccc(C=C2C(=O)Nc3ccccc32)cc1	89.8%
COc1cc2nccc(Oc3ccc(NC(=S)NC(=O)c4ccccc4C)cc3)c2cc1OC	94.4%
O=C(CCCc1ccc(-c2ccccc2F)cc1)Nc1ccc(O)cc1	98%
Cc1nc(-c2ccccc2)c(-c2ccncc2)o1	96.8%
O=C(O)c1ccc2c3c1cccc3c(=O)n1c3ccccc3nc21	70.1%
CCOC(=O)c1c(C)[nH]c(/C=C2\C(=O)Nc3ccccc32)c1C	28.6%
COc1cc2ncnc(Nc3ccc(F)c(Cl)c3)c2cc1OCCCN1CCOCC1	108%
O=c1c2ccccc2[nH]c(=S)n1CCN1CCC(=C(c2ccc(F)cc2)c2ccc(F)cc2)CC1	93.9%
CO[C@H]1C[C@@H]2CC[C@@H](C)[C@@](O)(O2)C(=O)C(=O)N2CCCC[C@H]2C(=O)O[C@H]([C@H](C)C[C@@H]2CC[C@@H](O)[C@H](OC)C2)CC(=O)[C@H](C)/C=C(\C)[C@@H](O)[C@@H](OC)C(=O)[C@H](C)C[C@H](C)/C=C/C=C/C=C/1C	98.7%
COc1cc2ncnc(Nc3ccc(Oc4ccccc4)cc3)c2cc1OC	65.3%

Series 2
Cell line: HuT78
Concentration: 2 µM
Time: 48 h
Reference: untreated
Compound	viability
c1cc(-c2cnn3cc(-c4ccc(OCCN5CCCCC5)cc4)cnc23)ccn1	104%
COc1cc2c(Nc3ccc(NC(=O)c4ccccc4)cc3)ncnc2cc1OCCCN1CCOCC1	93.1%
Cn1sc(=O)n(Cc2ccccc2)c1=O	74.7%
C[C@@H](Oc1cc(-c2cnn(C3CCNCC3)c2)cnc1N)c1c(Cl)ccc(F)c1Cl	99.5%
Nc1nc(N)c2nc(-c3cccc(O)c3)c(-c3cccc(O)c3)nc2n1	158%

Series 3
Compound: CN([C@@H]1CCc2c(CC(=O)O)c3cc(S(C)(=O)=O)ccc3n2C1)S(=O)(=O)c1ccc(F)cc1
Observed: cell-free assay
Method: competition with immobilised ligand
Concentration: 1 µM
target	remaining binding [%]
STK35 (Homo sapiens, UniProt Q8TDR2)	100
GRK2 (Homo sapiens, UniProt P25098)	84
CDK9 (Homo sapiens, UniProt P50750)	100
CDK11B (Homo sapiens, UniProt P21127)	100
BRAF (Homo sapiens, UniProt P15056, V600E)	90
CSNK1G1 (Homo sapiens, UniProt Q9HCP0)	91
MAPK6 (Homo sapiens, UniProt Q16659)	100

Series 4
SMILES: c1ccc(Oc2ccc(Nc3c4c(nc5ccccc35)CCC4)cc2)cc1
Organism: Leishmania donovani
Observed: parasite killing
Strain: DD8
system	conditions	inhibition
promastigotes	6.66 µM, 48 h	99%
intracellular amastigotes	0.8 µM, 96 h	74% and 75% and 71%
promastigotes	16.66 µM, 72 h	100%

Single results of other studies
Compound	system	conditions	quantity	result
CN(N=O)C(=O)N[C@@H]1[C@@H](O)[C@H](O)[C@@H](CO)O[C@@H]1O	mice, STZ diabetic neuropathy	dose not given, 7 days after STZ	blood glucose	469 mg/dL and 406 mg/dL and 558 mg/dL and 325 mg/dL and 446 mg/dL

Some of these lines once more (series 3):
target	remaining binding [%]
GRK2 (Homo sapiens, UniProt P25098)	84
CDK9 (Homo sapiens, UniProt P50750)	100
CDK11B (Homo sapiens, UniProt P21127)	100
